# Measurements pooled from the literature.
# Lines come from different studies, so protocols differ. Numbers after ± are the reported error.
# YWHAG/RELA phospho-Ser45 p65 peptide: YWHAG/RELA, phospho-Ser45 p65 peptide (Homo sapiens, UniProt P61981+Q04206)
# UniProt Q04206, sequence (whole entry, looked up): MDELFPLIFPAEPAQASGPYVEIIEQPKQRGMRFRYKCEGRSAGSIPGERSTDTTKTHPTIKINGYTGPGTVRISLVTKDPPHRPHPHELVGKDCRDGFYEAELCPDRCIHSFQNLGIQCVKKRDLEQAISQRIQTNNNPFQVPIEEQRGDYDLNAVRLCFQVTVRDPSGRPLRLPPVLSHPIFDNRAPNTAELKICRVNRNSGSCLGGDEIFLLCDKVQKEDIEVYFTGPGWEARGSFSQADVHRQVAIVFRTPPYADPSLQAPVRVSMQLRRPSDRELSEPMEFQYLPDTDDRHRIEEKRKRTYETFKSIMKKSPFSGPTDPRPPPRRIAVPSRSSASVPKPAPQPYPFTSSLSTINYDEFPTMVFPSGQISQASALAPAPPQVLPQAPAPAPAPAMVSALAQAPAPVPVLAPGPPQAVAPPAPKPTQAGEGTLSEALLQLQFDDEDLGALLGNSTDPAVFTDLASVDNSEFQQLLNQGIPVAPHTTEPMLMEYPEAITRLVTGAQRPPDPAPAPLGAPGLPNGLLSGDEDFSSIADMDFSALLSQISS
# UniProt P61981, sequence (whole entry, looked up): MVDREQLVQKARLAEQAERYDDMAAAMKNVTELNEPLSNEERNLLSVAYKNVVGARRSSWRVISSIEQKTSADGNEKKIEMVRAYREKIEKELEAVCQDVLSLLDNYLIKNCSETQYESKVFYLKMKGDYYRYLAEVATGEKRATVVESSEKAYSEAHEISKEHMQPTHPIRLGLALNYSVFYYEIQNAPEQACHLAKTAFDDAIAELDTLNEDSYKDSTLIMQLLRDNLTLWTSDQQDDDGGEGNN
# Nuclear receptor subfamily 2 group C member 2 ligand-binding domain: Nuclear receptor subfamily 2 group C member 2, ligand-binding domain (Homo sapiens, UniProt P49116)
# UniProt P49116, sequence (whole entry, looked up): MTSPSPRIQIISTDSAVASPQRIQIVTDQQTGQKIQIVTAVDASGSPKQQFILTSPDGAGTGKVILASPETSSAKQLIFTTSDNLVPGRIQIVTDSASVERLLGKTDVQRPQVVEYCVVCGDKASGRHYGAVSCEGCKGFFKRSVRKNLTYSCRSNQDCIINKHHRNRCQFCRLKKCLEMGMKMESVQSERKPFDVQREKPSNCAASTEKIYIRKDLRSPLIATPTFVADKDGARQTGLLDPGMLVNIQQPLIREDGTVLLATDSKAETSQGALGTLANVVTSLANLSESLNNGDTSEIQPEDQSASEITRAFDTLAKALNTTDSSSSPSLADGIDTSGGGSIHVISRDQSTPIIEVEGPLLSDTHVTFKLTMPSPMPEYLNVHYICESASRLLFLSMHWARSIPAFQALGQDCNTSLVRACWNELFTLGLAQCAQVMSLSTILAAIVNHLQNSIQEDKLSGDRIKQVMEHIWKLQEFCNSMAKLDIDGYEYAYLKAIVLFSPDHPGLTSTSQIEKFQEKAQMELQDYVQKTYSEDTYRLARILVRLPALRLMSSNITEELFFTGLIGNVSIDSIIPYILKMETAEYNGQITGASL
SMILES,target or system,assay,system,setting,scale,endpoint,value
CC(C)(C)OC(=O)CN(Cc1ccc(Cl)cc1)Cc1ccc([N+](=O)[O-])s1,OCI-Ly1,,,"0.1 µM, 120 h",,viability,117%
c1coc(-c2n[nH]cc2-c2ccnc3ccccc23)c1,IKS1 (Candida albicans),"kinase binding, MIB/MS competition",Candida albicans lysate,1 µM,baseline: DMSO,log2 fold change,-0.32
CC(=Nc1ccc(N=Cc2ccc3nccnc3c2)cc1)N(C)C,Necator americanus,,infected hamsters,"oral, 50 mg/kg single",baseline: untreated,worm burden reduction,88.9 ± 7%
O=C(O)c1ccc(O)c2ncccc12,OCI-Ly1,,,"0.1 µM, 120 h",,viability,192%
Oc1ccccc1-c1n[nH]cc1-c1ccnc2ccccc12,RAD53 (Candida albicans),"kinase binding, MIB/MS competition",Candida albicans lysate,1 µM,baseline: DMSO,log2 fold change,1.11
O=Cc1ccc([N+](=O)[O-])c(O)c1,YWHAG/RELA phospho-Ser45 p65 peptide,"ternary complex formation, stabilizer, fluorescence anisotropy",,,,EC50,> 1000 µM
N=C1NC(=O)/C(=C/c2ccc(O)cc2)S1,OCI-Ly1,,,"1 µM, 120 h",,viability,147%
NCCOc1cc(C(=O)Nc2cc(OCCN)c3ccccc3n2)nc(C(=O)Nc2cc(OCCN)c3ccccc3n2)c1,double-stranded DNA,FRET melting,,"1 µM, pH 7.4, 60 mM potassium, added: oligonucleotide 200 nM",,delta Tm,0.5 ± 0.2 K
O=C(O)CCNc1cc(N2CCc3ccccc3CC2)nc(-c2ccccn2)n1,OCI-Ly1,,,"0.1 µM, 120 h",,viability,124%
COC1=C(OC)C(=O)C(CCCCCCCCCCO)=C(C)C1=O,Nuclear receptor subfamily 2 group C member 2 ligand-binding domain,SPR imaging,,,,Kd,0.471 µM
Cn1cc(-c2ccc(-c3cncc(Cl)c3N3CCC4(CCNC4=O)CC3)cc2)cn1,COLO 205,"gene expression, microarray, refers to: ULBP1 mRNA",,"concentration not given, 6 h",baseline: untreated cells,log2 fold change,1.29
O=C(/C=C/C=C/C=C/C1CCCCC1)NC1=C[C@@](O)(/C=C/C=C/C=C/C(=O)NC2=C(O)CCC2=O)[C@@H]2O[C@@H]2C1=O,SK-MEL-30,"cell growth, CellTiter-Glo",,78 h,,GI50,14.3 µM
Cc1ccc(C(=O)Nc2ccc(S(=O)(=O)O)c3cc(S(=O)(=O)O)cc(S(=O)(=O)O)c23)cc1NC(=O)c1cccc(NC(=O)Nc2cccc(C(=O)Nc3cc(C(=O)Nc4ccc(S(=O)(=O)O)c5cc(S(=O)(=O)O)cc(S(=O)(=O)O)c45)ccc3C)c2)c1,OCI-Ly1,,,"0.5 µM, 120 h",,viability,144%
NCCCOc1cc(NC(=O)c2cccc(C(=O)Nc3cc(OCCCN)c4ccccc4n3)n2)nc2ccccc12,double-stranded DNA,FRET melting,,"1 µM, pH 7.4, 60 mM potassium, added: oligonucleotide 200 nM",,delta Tm,0.1 ± 0.2 K
NC(=O)c1cnc2[nH]ccc2c1N[C@@H]1[C@@H]2CC3C[C@H]1C[C@@](O)(C3)C2,,"flow cytometry, refers to: CD8+ memory T cells","Japanese healthy subjects, peripheral blood","oral, 30 mg twice daily, day 4",,change from baseline,0.52%
COc1ccc(CNC(=O)c2ccc(C=O)cc2)cc1,YWHAG/RELA phospho-Ser45 p65 peptide,"ternary complex formation, stabilizer, fluorescence anisotropy",,,,EC50,> 1000 µM
CC(C)NCC(O)c1ccc(O)c(O)c1 (centres unmarked),,,"ventricular cardiomyocytes, C57BL/6 mouse","dose not given, 0.832 s",,sarcomere length,1.52 µm
C[C@H]1C[C@H]2CSC(N)=N[C@@]2(c2nc(NC(=O)c3ccc(OC(F)F)cn3)cs2)CO1,,,"healthy adults, fed, plasma","oral, 200 mg single dose, 8 h","baseline: baseline, placebo-adjusted",plasma Aβx-40 change,-62%
Nc1ncnc2c1ncn2[C@@H]1O[C@H](CO)[C@@H](O)[C@H]1O,Nuclear receptor subfamily 2 group C member 2 ligand-binding domain,SPR imaging,,,,Kd,0.0124 µM
NCCOc1cc(NC(=O)c2cc(OCc3ccc(F)cc3)cc(C(=O)Nc3cc(OCCN)c4ccccc4n3)n2)nc2ccccc12,double-stranded DNA,FRET melting,,"1 µM, pH 7.4, 60 mM potassium, added: oligonucleotide 200 nM",,delta Tm,0.3 ± 0.1 K
CCn1cc(-c2cc(Cn3ccnc3)cc3c2CCN([C@H](c2cc(OC)ccn2)C2CC2)C3=O)c(C(F)(F)F)n1,OVSAHO,"cell growth, inhibitor",,120 h,,EC50,> 30 µM
NCCCOc1cc(NC(=O)c2cc(OCc3c[nH]nn3)cc(C(=O)Nc3cc(OCCCN)c4ccccc4n3)n2)nc2ccccc12,human telomeric G-quadruplex DNA,FRET melting,,"1 µM, pH 7.4, added: 60 mM potassium",,ΔTm,13.2 ± 0.8 K
CCCOc1ccn2c(C(C)=O)cc(-c3ccccc3S(C)(=O)=O)c2c1,OCI-Ly1,,,"1 µM, 120 h",,viability,66.8%
O=C(O)CNC(=O)Cc1ccccc1,,,"ventricular cardiomyocytes, C57BL/6 mouse","dose not given, 0.528 s",,sarcomere length,1.62 µm
CN(C)CCCOc1cc(NC(=O)c2cccc(C(=O)Nc3cc(OCCCN(C)C)c4ccccc4n3)n2)nc2ccccc12,c-kit2 G-quadruplex DNA,FRET melting,,"1 µM, pH 7.4, added: 60 mM potassium",,ΔTm,19.5 ± 1.2 K
O=C(c1ccc(C(=O)N2CCC(N3CCCC3)CC2)c(Nc2ccccc2)c1)N1CCC(N2CCCC2)CC1,OCI-Ly1,,,"0.1 µM, 120 h",,viability,192%
O=C(Nc1cc(OCCN2CCCC2)c2ccccc2n1)c1cc(Cl)cc(C(=O)Nc2cc(OCCN3CCCC3)c3ccccc3n2)n1,human telomeric G-quadruplex DNA,FRET melting,,"1 µM, pH 7.4, added: 60 mM potassium",,ΔTm,24.3 ± 0.6 K
O=C(CCCCCCC(=O)Nc1cccnc1)NO,OCI-Ly1,,,"0.5 µM, 120 h",,viability,77%
O=C(Nc1cc(OCCN2CCCC2)c2ccccc2n1)c1cc(OCc2ccc(F)cc2)cc(C(=O)Nc2cc(OCCN3CCCC3)c3ccccc3n2)n1,c-kit2 G-quadruplex DNA,FRET melting,,"1 µM, pH 7.4, added: 60 mM potassium",,ΔTm,3.8 ± 0.4 K
COc1cnc2cccc(N3CCc4c(cc(Cn5ccnc5C)cc4-c4cn(C)nc4C(F)(F)F)C3=O)c2c1,KMS-11,"cell growth, inhibitor",,120 h,,EC50,> 30 µM
CN(C)CCCOc1cc(NC(=O)c2cc(Cl)cc(C(=O)Nc3cc(OCCCN(C)C)c4ccccc4n3)n2)nc2ccccc12,double-stranded DNA,FRET melting,,"1 µM, pH 7.4, 60 mM potassium, added: oligonucleotide 200 nM",,delta Tm,0.3 ± 0.2 K
CCn1cc(-c2cc(Cn3ccoc3=N)cc3c2CCN([C@@H](C)c2cc(OC)ccn2)C3=O)c(C(F)(F)F)n1,HSC-4,"cell growth, inhibitor",,120 h,,EC50,> 30 µM
